Results from different studies.
Every numbered part comes from another study and shows a few of its results, in no order. Positions count from the first letter of the parent shown.

Study 1
Target: Interferon regulatory factor 3, full length, phosphomimetic (IRF3, Homo sapiens, UniProt Q14653, residues 1-427, S386D/S396D/S398D/S402D/T404D/S405D)
Method: protein-binding microarray
Molecule type: double-stranded DNA, one strand shown
Sample: in vitro
Tested at: 2540 nM top
Setting: 60-bp whole probe
Added: salmon DNA 0.4 mg/ml
Relative to: random background probes
Direction: higher = stronger binding
Endpoint: fitted relative affinity
All sequences stand within: GCCTAGCAC … GTCTTGATTCGCTTGACGCTGCTG
Target sequence (chain): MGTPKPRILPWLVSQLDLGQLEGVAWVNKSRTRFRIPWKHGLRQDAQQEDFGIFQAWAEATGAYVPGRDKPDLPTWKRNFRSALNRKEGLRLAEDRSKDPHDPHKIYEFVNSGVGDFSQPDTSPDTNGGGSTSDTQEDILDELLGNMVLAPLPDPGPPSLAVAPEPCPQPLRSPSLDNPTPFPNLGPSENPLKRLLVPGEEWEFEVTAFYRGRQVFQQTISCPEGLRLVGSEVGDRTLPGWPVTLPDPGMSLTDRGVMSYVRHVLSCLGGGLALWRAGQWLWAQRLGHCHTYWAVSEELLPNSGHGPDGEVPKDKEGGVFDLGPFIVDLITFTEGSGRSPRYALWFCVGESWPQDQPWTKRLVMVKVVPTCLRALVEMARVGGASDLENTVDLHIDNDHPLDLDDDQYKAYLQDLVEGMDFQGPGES
AAACTTACCTCACTCGTTAAGTGCTAG: 0.517 z-score
GTTTCTCTTTCCTTCTTGATGTGCTAG: 9.38 z-score
TTAGGTATCCTACTGCTTTGGTGCTAG: 2.31 z-score
TTAGGTTTCGACTAACGGTTAGTGCTA: 2.03 z-score
TTAGATATCGGGTTTGGATTAGTGCTA: 0.288 z-score
GACGGTTCCGGTTTCGTGACGTGCTAG: 5.15 z-score
TTAGTTATCGGACTGGGTTAGTGCTAG: 0.502 z-score
GACGATATCGTGTATCGAGACGTGCTA: 0.197 z-score
TTAGGACGGCTTTTCCTTTAGTGCTAG: 0.207 z-score
TTAGGACTGAGTCTCGATTAGTGCTAG: -0.453 z-score
TTAGGAATCCTACTGCTTTAGTGCTAG: 0.624 z-score
GCCGGACTGCTTTTCCTGACGTGCTAG: 0.339 z-score
TGGTATTTTTTTGTAATCGAGTGCTAG: 0.41 z-score
TTAGGTCTCGGACTGGCTTAGTGCTAG: -0.463 z-score
TCACTTTCCACTTGTCTTACTGTGCTA: 4.24 z-score
TTAGATCTCAGTATCGATTTGTGCTAG: 1.84 z-score
GACGATTTCAGTACCGAGACGTGCTAG: 1.57 z-score
TTAGGTTTCCTTTTGCTTTAGTGCTAG: 9.24 z-score
TACGATATCGGGTATCGAGACGTGCTA: 0.00471 z-score
GACGCTCTCGGACTGGGGACGTGCTAG: -0.415 z-score
TCATATACCCATGTAGAACTGTGCTAG: 0.572 z-score
TTTGAACTGAGACTGGATTAGTGCTAG: -0.443 z-score
TTAGCTTCCGGTTTCGGTTAGTGCTAG: 6 z-score
TTAGATATCGGGTTTCGATTTGTGCTA: 3.17 z-score
TCATGAATGTGTCTTAAACTGTGCTAG: -0.209 z-score

Study 2
Target: CREBZF, bZIP domain (human)
Method: DHFR protein complementation
Sample: yeast
Setting: single substitutions, most at no-binding floor
Relative to: wild-type JUN-FOS pair
Direction: higher = stronger binding
Endpoint: binding fitness
Parent: JUN, bZIP domain (human); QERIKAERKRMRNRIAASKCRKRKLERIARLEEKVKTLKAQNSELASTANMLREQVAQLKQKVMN; partner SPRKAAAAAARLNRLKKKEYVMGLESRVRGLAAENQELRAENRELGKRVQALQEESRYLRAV
Q58S: -1.41 natural log
N42E: -1.51 natural log
T37D: -1.46 natural log
A49N: -1.59 natural log
R53P: -1.52 natural log
T48M: -1.5 natural log
E44H: -1.48 natural log
L38A: -1.57 natural log
Q41R: -1.45 natural log
V35H: -1.51 natural log
Q55M: -1.23 natural log
S47P: -1.51 natural log
R30P: -1.46 natural log
A40H: -1.47 natural log
I28W: -1.5 natural log
A46C: -1.38 natural log
L59H: -1.54 natural log
V35P: -1.51 natural log
N42F: -1.54 natural log

Study 3
Substance: PhoQ, residues 284 288 289 292 302 303 AEGLLW
Method: Sort-seq
Refers to: YFP reporter
Sample: E. coli
Setting: PhoQ-PhoP variant library
Added: 10 µM Mg2+
Relative to: high Mg2+ state
Direction: higher = stronger signaling
Endpoint: fold induction
PhoP, residues 12 14 15 18 19 TQCLL (Escherichia coli, UniProt P23836): 2.65
PhoP, residues 12 14 15 18 19 VHTVL (Escherichia coli, UniProt P23836): 4.8
PhoP, residues 12 14 15 18 19 ICWRQ (Escherichia coli, UniProt P23836): 2.93

Study 4
Target: ABI1, truncated, D143A, DHFR fusion (Arabidopsis thaliana)
Method: DHFR PCA, deep sequencing
Sample: yeast
Setting: methotrexate growth selection, single substitutions
Added: (+)-ABA 58 µM
Relative to: wild-type fitted maximum
Direction: higher = stronger binding
Endpoint: relative binding score
Parent: PYL1, truncated, DHFR fusion (Arabidopsis thaliana); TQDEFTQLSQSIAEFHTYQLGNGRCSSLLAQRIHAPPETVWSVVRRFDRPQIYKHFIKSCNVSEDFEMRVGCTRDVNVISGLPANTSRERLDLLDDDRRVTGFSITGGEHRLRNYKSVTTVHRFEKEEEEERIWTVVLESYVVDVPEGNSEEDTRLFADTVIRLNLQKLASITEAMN; partner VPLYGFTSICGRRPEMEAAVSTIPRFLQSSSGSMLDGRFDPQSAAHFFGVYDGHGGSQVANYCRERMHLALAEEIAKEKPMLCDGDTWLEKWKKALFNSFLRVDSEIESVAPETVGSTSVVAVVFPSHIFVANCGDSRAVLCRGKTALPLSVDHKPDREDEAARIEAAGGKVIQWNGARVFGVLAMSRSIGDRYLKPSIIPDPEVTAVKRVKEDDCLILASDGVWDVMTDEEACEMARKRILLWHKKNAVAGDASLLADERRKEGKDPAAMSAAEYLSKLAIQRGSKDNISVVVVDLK
D159P: -9.83%
V121G: -6.25%
R132W: 75.2%
W134T: 96.5%
R90T: 77.1%
W41H: 1.29%
S59H: 75.7%
V136Y: 92.2%
I172N: 25.1%
V43N: 21.8%
S171E: 94.4%
L82Y: 16.9%

Some of these lines once more (study 1):
TTAGATATCGGGTTTGGATTAGTGCTA: 0.288 z-score
GACGGTTCCGGTTTCGTGACGTGCTAG: 5.15 z-score
TTAGTTATCGGACTGGGTTAGTGCTAG: 0.502 z-score
GACGATATCGTGTATCGAGACGTGCTA: 0.197 z-score
TTAGGACGGCTTTTCCTTTAGTGCTAG: 0.207 z-score
TTAGGACTGAGTCTCGATTAGTGCTAG: -0.453 z-score
TTAGGAATCCTACTGCTTTAGTGCTAG: 0.624 z-score
GCCGGACTGCTTTTCCTGACGTGCTAG: 0.339 z-score
TGGTATTTTTTTGTAATCGAGTGCTAG: 0.41 z-score
